# Experimental data from different studies.
# Lines come from different studies, so protocols differ. Numbers after ± are the reported error.
# Organism: Plasmodium falciparum
Structure (SMILES),test,test system,conditions,EC50 [nM]
CCn1cc(-c2nc(C)no2)c(=O)c2cc(F)c(N3CCC(Cc4ccccc4)CC3)cc21,"parasite growth, [3H]hypoxanthine incorporation",Dd2,72 h,4
O=C(C[C@H]1NCCC[C@@H]1O)Cn1cnc2ccccc2c1=O,"cell growth, SYBR Green I",3D7,"48 h, asexual blood stage",0.3
O=C(O)[C@@H]1Cc2c([nH]c3ccccc23)[C@@H](c2ccc(Cl)cc2Cl)N1,parasite growth,"AM1, HAD1 loss-of-function",72 h,1300
COc1ccc(-n2ccnc2SCC(=O)Nc2cc(C(F)(F)F)ccc2Cl)c(OC)c1,"parasite growth, SYBR Green",3D7 wild type,72 h,36 ± 7.1
CN1CCN(S(=O)(=O)c2ccc(-c3ccc4ncnc(Nc5ccc(OCc6cccc(F)c6)c(Cl)c5)c4c3)cc2)CC1,"parasite growth, SYBR Green fluorescence","C235 (TM91C235), drug-resistant",,39
Cc1ccc(N(c2ccc(NC(=O)CN(C)c3ccccc3N3CCCC3=O)cn2)C(C)C)cc1F,"parasite growth, LDH","3D7 population D, CSC1 L954F",72 h,8
CCn1cc(-c2nc(C)no2)c(=O)c2cc(F)c(N3CCC(C)CC3)cc21,"parasite growth, [3H]hypoxanthine incorporation",RF12,72 h,7
CCn1cc(C2CC2)c2c(CN3CCC(F)(F)CC3(C)C)n(C)nc2c1=O,parasite growth,3D7,,31.6
C=CCn1c(SCC(=O)Nc2cc(C)ccc2OC)nc2sc(C)cc2c1=O,"parasite growth, SYBR Green",3D7 wild type,72 h,320 ± 57
CN(CC(=O)Nc1ccc(N(C)c2ccc(Cl)cc2)cc1)c1ccccc1N1CCCC1=O,"parasite growth, LDH","3D7 population E, L562R mutant",72 h,423
CCOC(=O)c1cn(CC)c2cc(O[C@H]3CCN(C(=O)OC(C)(C)C)C3)ccc2c1=O,"parasite growth, SYBR Green",3D7 DHODH E182D,72 h,778 ± 120
NCCOCC(=O)N1CCCC(C(=O)NCc2nc(-c3ccc(-c4ccc(F)cc4)cc3)cs2)C1 (centres unmarked),"parasite growth, SYBR Green","3D7, asexual blood stage",72 h,73 ± 33
Cc1cc(N[C@H]2CCc3ccc(Cl)cc3C2)n2nc(C(C)(F)F)nc2n1,parasite growth,TM90C2B multidrug-resistant,,1.3
CC(C)C[C@H](NC(=O)[C@H](Cc1c[nH]c2ccccc12)NC(=O)CN1CCOCC1)C(=O)N[C@H](/C=C/S(C)(=O)=O)Cc1c[nH]c2ccccc12,,Dd2 β5 S27F CRISPR-edited,,7.7 ± 1.3
N#Cc1c(F)cccc1N1CCN(c2ccc(O)cc2)CC1,parasite growth,3D7-E182D,72 h,> 12500
CCOCC(=O)N1CCC[C@H](C(=O)NCc2nc(-c3ccc(C#N)cc3)cs2)C1,,Dd2 β3 R190S resistant,,110 ± 49
Cc1cc(Nc2ccc(C)c(Cl)c2)n2ncnc2n1,"parasite growth, SYBR Green",3D7 wild type,72 h,1320 ± 510
Cc1nnc(-c2ccc3ccn(CC(=O)Nc4ccccc4Cl)c3c2)o1,"parasite viability, SYBR Green flow cytometry",Dd2 multidrug-resistant,"48 h, asexual blood stage",320
Cc1cc(Nc2ccc(S(F)(F)(F)(F)F)cc2)n2nc(C(C)(F)F)nc2n1,,Dd2 β5 S27F CRISPR-edited,,5.9 ± 0.62
CC(Oc1cccc(Cl)c1)C(=O)N1CCc2ccccc21 (centres unmarked),"parasite growth, SYBR Green",3D7 wild type,72 h,2420 ± 910
CCOC(=O)c1cn(CC)c2cc(N3CCC(Cc4ccccc4)CC3)c(F)cc2c1=O,"parasite growth, [3H]hypoxanthine incorporation",RF12,72 h,4
CN1CCCN(S(=O)(=O)c2ccc(-c3ccc4ncnc(Nc5ccc(OCc6cccc(F)c6)c(Cl)c5)c4c3)cc2)CC1,"parasite growth, SYBR Green fluorescence","C235 (TM91C235), drug-resistant",,50
COc1ccccc1N1CCN(c2cccc(F)c2C#N)CC1,"parasite growth, SYBR Green",3D7 wild type,72 h,4750 ± 2700
Cc1ccc(N(C)c2ccc(NC(=O)CN(C)c3cccnc3N3CCCC3=O)cc2)cc1,"parasite growth, LDH",3D7 population A,72 h,274
CCN(CC)CCCC(C)Nc1ccnc2cc(Cl)ccc12 (centres unmarked),ex vivo,Ugandan field isolates,,80 to 100
COc1ccc(NC(=O)CCNc2cc(C)nc(NCCc3ccc(F)cc3)n2)cc1,"parasite growth, SYBR Green",3D7 DHODH E182D,72 h,1180 ± 180
O=C1C(O)=C([C@H]2CC[C@H](c3ccc(Cl)cc3)CC2)C(=O)c2ccccc21,"parasite growth, SYBR Green I","TM90-C2B, resistant isolate",72 h,> 2500
CC(C)N(c1ccc(Cl)c(F)c1)c1ccc(NC(=O)CN(C)c2ccccc2N2CCCC2=O)cn1,"parasite growth, LDH",3D7 population A,72 h,11
CC(C)C[C@@H](C=O)NC(=O)[C@H](CC(C)C)NC(=O)[C@H](CC(C)C)NC(=O)OCc1ccccc1,,Dd2 β3 R190S resistant,,130 ± 17
Cc1ccc(N(C)c2ccc(NC(=O)CN(C)c3ccccc3N3CCCC3=O)cc2)cc1,"parasite growth, LDH",3D7 population A,72 h,78
CC[C@H](C)[C@H](NC(=O)[C@H]([C@@H](C)CC)N(C)C(C)=O)C(=O)N[C@H](C(=O)N[C@@H](CC(C)C)C(=O)[C@@]1(C)CO1)[C@@H](C)O,,Dd2 β5 S27F resistant,,11 ± 1.5
Cc1c(Cc2ccc(C(F)(F)F)nc2)c[nH]c1C(=O)NC(C)c1cnn(C)c1 (centres unmarked),SYBR Green,"Uganda field isolates, Albumax medium","72 h, unbound, ex vivo patient isolates",2
